Published values collected from several papers.
Compare with care: the assays were run in different laboratories. ± gives the spread as reported.
ADORA2A: Adenosine receptor A2a (ADORA2A, Homo sapiens, UniProt P29274)
PYR1: Abscisic acid receptor PYR1 (PYR1, Arabidopsis thaliana, UniProt O49686)
OPRK1: Kappa-type opioid receptor (OPRK1, Homo sapiens, UniProt P41145)
GABA-A receptor; alpha-5/beta-3/gamma-2: GABA-A receptor; alpha-5/beta-3/gamma-2 (Homo sapiens, UniProt P18507+P28472+P31644)

Nc1nc2c(ncn2[C@@H]2O[C@@H]3COP(=O)(O)O[C@H]3[C@H]2O)c(=O)[nH]1 — EC50 (Cone cGMP-gated channel (Morone saxatilis, UniProt Q3I0N1+Q3I0N2); channel current, agonist, suction electrode; Morone saxatilis, cone outer segments; together with: 5 µM Ca2+): 312 ± 84.7 µM
Cn1cc(-c2cnc(N)n3nc(-c4ccco4)nc23)ccc1=O — EC50 (ADORA2A): > 100 µM
O=C(Cc1cc(C2CC2)c(-n2cc(CNC(=O)c3csc(Br)c3)nn2)c(C2CC2)c1)NC1(C(=O)O)CCCCC1 — EC50 (PYR1; phosphatase activity recovery, antagonist; together with: HAB1, ABA 5000 nM): 0.098 ± 0.028 µM
COC(=O)C1=C2Nc3ccccc3[C@@]23CCN2C[C@@](O)(C(C)=O)[C@@H]1C[C@H]23 — EC50 (OPRK1; cAMP inhibition, agonist, HitHunter; CHO-K1; together with: forskolin): > 10 µM
Cc1cccc(C(=O)NCc2cn(-c3c(C4CC4)cc(CC(=O)NC4(C(=O)O)CCCCC4)cc3C3CC3)nn2)n1 — EC50 (PYR1; phosphatase activity recovery, antagonist; together with: HAB1, ABA 5000 nM): 0.333 ± 0.079 µM
CCCCCCCCCCCCCCCC(=O)SCCNC(=O)CCNC(=O)C(O)C(C)(C)COP(=O)(O)OP(=O)(O)OCC1OC(n2cnc3c(N)ncnc32)C(O)C1OP(=O)(O)O (stereo not shown) — EC50 (Mitochondrial dynamics protein MIEF1 (MIEF1, Homo sapiens, UniProt Q9NQG6); MANT-ADP fluorescence decrease, MANT-ADP competition; target 1 µM, together with: MANT-ADP 300 nM): 2 µM
CCn1c(-c2nc3cc(C(=O)N4CCC[C@@H](N)C4)cc(OC)c3n2C)cc2cccnc21 — EC50 (ADORA2A; agonist, TR-FRET): > 31.6 µM
COC(=O)C1=C2Nc3ccc(Br)cc3[C@@]23CCN2C[C@@](O)([C@@H](C)O)[C@@H]1C[C@H]23 — EC50 (OPRK1; cAMP inhibition, agonist, HitHunter; CHO-K1; together with: forskolin): > 10 µM
O=C(Cc1cc(C2CC2)c(-n2cc(CNC(=O)c3ccc4cccc(F)c4n3)nn2)c(C2CC2)c1)NC1(C(=O)O)CCCCC1 — EC50 (PYR1; phosphatase activity recovery, antagonist; together with: HAB1, ABA 5000 nM): 0.116 ± 0.022 µM
O=S(=O)(O)C1CCNCC1 — EC50 (GABA-A receptor; alpha-5/beta-3/gamma-2; membrane potential, agonist, QP-DHM fluorescence; HEK293 expressing GABAA α5β3γ2): 12 µM
CCCCC[C@H](O)/C=C/[C@H]1[C@H](O)CC(=O)[C@@H]1C/C=C\CCCC(=O)O — EC50 (PTGER1 (Homo sapiens, UniProt P34995, S306A); IP1 accumulation, agonist; AD293; EP1 S306A mutant): 0.00399 µM
COc1cc2c(cc1OC)C(=O)N(CCCCN1CCN(c3ccccc3OC)CC1)C2 — EC50 (DRD2 (Homo sapiens, UniProt P14416); agonist): 0.2 µM
O=C(Nc1ccn(Cc2ccc(O)cc2C(F)(F)F)n1)c1c(F)cccc1F — EC50 (TRPC3 (Homo sapiens, UniProt Q13507); ion channel activity, agonist; cells overexpressing TRPC3; human receptor): > 10 µM
O=C(Cc1cc(C2CC2)c(-n2cc(CNC(=O)c3ccc4ccccc4c3)nn2)c(C2CC2)c1)NC1(C(=O)O)CCCCC1 — EC50 (PYR1; phosphatase activity recovery, antagonist; together with: HAB1, ABA 5000 nM): 0.586 ± 0.104 µM
Cc1nn2c(N3CCN(CCO)CC3)cc(-c3ccccc3)nc2c1-c1ccccc1 — EC50 (GTPase KRas, with SOS1 (KRAS, Homo sapiens, UniProt P01116); SOS-mediated nucleotide exchange): 0.6 ± 0.1 µM
Cc1nn(-c2nc3c(F)cc(F)cc3s2)c(O)c1C(c1cccc(C(F)(F)F)c1)c1c(C)nn(-c2nc3c(F)cc(F)cc3s2)c1O — EC50 (Cyclic GMP-AMP synthase, catalytic domain; with DNA (CGAS, Homo sapiens, UniProt Q8N884); cGAS phase separation, inhibitor): 4.78 µM
O=C(Cc1cc(C2CC2)c(-n2cc(CNC(=O)c3cnc4ccccc4n3)nn2)c(C2CC2)c1)NC1(C(=O)O)CCCCC1 — EC50 (PYR1; phosphatase activity recovery, antagonist; together with: HAB1, ABA 5000 nM): 0.144 ± 0.015 µM
CCn1c(-c2nc3ccc(C(=O)N4CCCC(N)C4)cc3n2C)cc2ccccc21 (stereo not shown) — EC50 (OPRK1; G protein activation, agonist, GTPγS binding): > 100 µM
O=C(Cc1cc(C2CC2)c(-n2cc(CNC(=O)c3ccc(Cl)s3)nn2)c(C2CC2)c1)NC1(C(=O)O)CCCCC1 — EC50 (PYR1; phosphatase activity recovery, antagonist; together with: HAB1, ABA 5000 nM): 0.137 ± 0.015 µM
O=C(O)C1=CCNCC1 — EC50 (GABA-A receptor; alpha-5/beta-3/gamma-2; membrane potential, agonist, QP-DHM fluorescence; HEK293 expressing GABAA α5β3γ2): 6 µM
O=C(Cc1cc(C2CC2)c(-n2cc(CNC(=O)c3ccc(Br)o3)nn2)c(C2CC2)c1)NC1(C(=O)O)CCCCC1 — EC50 (PYR1; phosphatase activity recovery, antagonist; together with: HAB1, ABA 5000 nM): 0.2 ± 0.026 µM
O=C1Nc2c(ccc(Cl)c2Cl)C1=NO — EC50 (KCNN4/CALM1 (Homo sapiens, UniProt O15554+P0DP23); ion current, activator, whole-cell patch clamp; HEK293; together with: 3 µM free calcium): 0.0086 µM

A few entries again:
CCn1c(-c2nc3cc(C(=O)N4CCC[C@@H](N)C4)cc(OC)c3n2C)cc2cccnc21 — EC50 (ADORA2A; agonist, TR-FRET): > 31.6 µM
O=C(Cc1cc(C2CC2)c(-n2cc(CNC(=O)c3ccc4ccccc4c3)nn2)c(C2CC2)c1)NC1(C(=O)O)CCCCC1 — EC50 (PYR1; phosphatase activity recovery, antagonist; together with: HAB1, ABA 5000 nM): 0.586 ± 0.104 µM
Cc1nn(-c2nc3c(F)cc(F)cc3s2)c(O)c1C(c1cccc(C(F)(F)F)c1)c1c(C)nn(-c2nc3c(F)cc(F)cc3s2)c1O — EC50 (Cyclic GMP-AMP synthase, catalytic domain; with DNA (CGAS, Homo sapiens, UniProt Q8N884); cGAS phase separation, inhibitor): 4.78 µM
